Measured values gathered from unrelated publications.
Every numbered part comes from another study and shows a few of its results, in no order.

Study 1
Target: Prothrombin, mature alpha-thrombin (F2, Homo sapiens, UniProt P00734)
Technique: aptamer microarray, sandwich
Form: DNA with 2'F-ANA
Sample: in vitro
Tested at: 200 nM
Notes: whole 15-mer aptamer, many near background
With: Cy3 exosite-II aptamer, 400 nM
Reading: higher = stronger binding
Sequence | mean fluorescence intensity
GGTTGGTGTGGTTGG (2'F-ANA at 1 4 7 8 10 11 12) | 55.1 a.u.
GGTTGGTGTGGTTGG (2'F-ANA at 1 4 5 6 7 8 10 11 13 14 15) | 50.3 a.u.
GGTTGGTGTGGTTGG (2'F-ANA at 2 4 5 7 8 10 11 12 15) | 53.2 a.u.

Study 2
Target: Histone acetyltransferase KAT6A, winged helix 2, GST fusion (KAT6A, Homo sapiens, UniProt Q92794, residues 85-181)
Technique: protein binding microarray
Form: double-stranded DNA, one strand shown
Sample: in vitro
Tested at: not given
Notes: 8-mer, flanks averaged, mean of 2 arrays, mostly near background
Relative to: not given
Reading: higher = stronger binding
Residues (chain): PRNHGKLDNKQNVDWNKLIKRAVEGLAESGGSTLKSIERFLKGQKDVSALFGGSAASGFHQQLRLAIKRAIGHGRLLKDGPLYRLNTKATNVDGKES
Sequence | E-score
TAACAGCA | 0.136
GGTGTGTA | -0.166
AAACAGCT | 0.0427

Single results of other studies
SALL4 full length isoform B: Sal-like protein 4, full length isoform B (SALL4, Homo sapiens, UniProt Q9UJQ4-2, residues 1-616)
Molecule | target | test | system | setting | scale | endpoint | result
AACCTAAC | SALL4 full length isoform B | universal PBM | double-stranded DNA, one strand shown, in vitro | not given, 8-mer, flanks averaged, mean of replicates | higher = stronger binding | E-score | 0.0331
PhoQ, residues 284 288 289 292 302 303 GTAMQF | PhoP, residues 12 14 15 18 19 TQALL (Escherichia coli, UniProt P23836) | Sort-seq, item: YFP reporter | E. coli | PhoQ-PhoP variant library, with: 10 µM Mg2+ | relative to: high Mg2+ state, higher = stronger signaling | fold induction | 1.65
CAGGCCTG | SALL4 full length isoform B | universal PBM | double-stranded DNA, one strand shown, in vitro | not given, 8-mer, flanks averaged, mean of replicates | higher = stronger binding | E-score | -0.252
AGGTGCCA | SALL4 full length isoform B | universal PBM | double-stranded DNA, one strand shown, in vitro | not given, 8-mer, flanks averaged, mean of replicates | higher = stronger binding | E-score | -0.141

Repeated from above (single results of other studies):
Molecule | target | test | system | setting | scale | endpoint | result
CAGGCCTG | SALL4 full length isoform B | universal PBM | double-stranded DNA, one strand shown, in vitro | not given, 8-mer, flanks averaged, mean of replicates | higher = stronger binding | E-score | -0.252
